{"data": "Measured values from different studies", "note": "Every numbered part comes from another study and shows a few of its results, in no order."}
{"data": "Study 1", "target": "Histone acetyltransferase KAT6A, winged helix 2, GST fusion (KAT6A, Homo sapiens, UniProt Q92794, residues 85-181)", "method": "protein binding microarray", "molecule type": "double-stranded DNA, one strand shown", "matrix": "in vitro", "concentration": "not given", "setting": "8-mer, flanks averaged, mean of 2 arrays, mostly near background", "baseline": "not given", "direction": "higher = stronger binding", "Construct (chain)": "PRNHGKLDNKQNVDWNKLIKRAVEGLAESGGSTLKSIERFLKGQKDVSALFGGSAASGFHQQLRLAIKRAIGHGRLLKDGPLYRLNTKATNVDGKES"}
{"Strand": "CAAGTGCC", "E-score": -0.0074}
{"Strand": "AAGCTCGA", "E-score": 0.0415}
{"Strand": "ACGAAGAA", "E-score": 0.105}
{"Strand": "AACAAAAA", "E-score": 0.133}
{"Strand": "ATAGACAC", "E-score": -0.0106}
{"Strand": "GCAGTTCA", "E-score": 0.0254}
{"Strand": "AAAGACGG", "E-score": 0.0799}
{"Strand": "CTAGTTGC", "E-score": 0.106}
{"Strand": "GGCTTCAA", "E-score": -0.0742}
{"Strand": "CGGGACTC", "E-score": -0.0366}
{"Strand": "AAAACGGC", "E-score": 0.0576}
{"Strand": "CACTGACG", "E-score": 0.137}
{"Strand": "TAGCCTAA", "E-score": 0.006}
{"Strand": "AATCTGGT", "E-score": 0.0783}
{"Strand": "ACCGGTAA", "E-score": -0.114}
{"Strand": "CTGGGTTA", "E-score": -0.0929}
{"Strand": "AATCGGTC", "E-score": -0.00542}
{"Strand": "AAACTGTT", "E-score": -0.0466}
{"Strand": "CTACACGA", "E-score": 0.0708}
{"data": "Study 2", "target": "RNA binding protein fox-1 homolog 2, RRM domain, GST-SBP tag (RBFOX2, Homo sapiens, UniProt O43251-10, residues 100-194)", "method": "RNA Bind-n-Seq", "molecule type": "RNA", "matrix": "in vitro", "concentration": "365 nM", "setting": "natural RNA segment, single round, ends assumed", "baseline": "no-protein control", "direction": "higher = stronger binding", "constant ends, left off below": "GGGAGUUCUACAGUCCGACGAUC … UGGAAUUCUCGGGUGCCAA", "Target sequence (chain)": "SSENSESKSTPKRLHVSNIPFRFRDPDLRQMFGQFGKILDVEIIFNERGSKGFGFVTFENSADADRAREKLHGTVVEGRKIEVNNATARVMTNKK"}
{"Strand": "AAAGAACAGUUCACAUGAACAAAAAAGAGAAAAACAAACAAACCACAAAACCCACAACCCAGCACAAAGUCGACAAUGGAUUUUGUUUCUUUGAUUUAUUUUGCCAAUGG", "RBNS enrichment (R)": 0.635}
{"Strand": "GAGUGCCUUUUGAACGCUGGUCCCGCGGGACUUGGUUUUCUCAAGCUCUGUCUGUCCAAAGACGCUCCGGUCGAGGUCCCGCCUGCCCUGGGUGGAUACUUGAACCCCAG", "RBNS enrichment (R)": 0.236}
{"Strand": "CAAAAUGAAACCUUGACAUUCUGGGAAGGAUUCCUAGCAGCUGAAUCCUAUUGACAAUGUGAGCUCCUCUGAGUGUCUGUGAAAUACUUCCAGUGUUCCUCAUCAUGUUU", "RBNS enrichment (R)": 0.674}
{"Strand": "GAGGUUACAUGUGCCAUGAGAACCCACUCUACACCAUAGUGCUGGUGCCUCAGUGUUGGCCAAACUCUGGAGUCACUGACUGGUUUGACUUUCAUGUGGUAAAUAUGCAU", "RBNS enrichment (R)": 0.481}
{"Strand": "ACGGACUUGUUAACCUAACCUAAUUAUGCUCAGUGGACUUCUAUAGAUGGUUUUGAAAAAUGAACUGAGCUGCCUUCCCCCGUCGCAUAACCAGUUCCAUCAUCCUGGUG", "RBNS enrichment (R)": 0.585}
{"Strand": "UGAGUACACCACUACACGUUGGGUAAAAGCAGGUGGGGCCUUUCUGGUUGGAUUAGGCACCCUUCAUGCCUGCUACCAGGAACUCUCAGAUCUGCUUGCCCCAAACAAAU", "RBNS enrichment (R)": 0.377}
{"Strand": "CGAUAGGGUCUUGGCUUUCUACUGUCCUUAUUUCUAGAUUAUUUCCUUGUAAGUUGGAAAGAAUGUUUAUUUAACAGAUCUUGUAUUACAUUUAUUUCCCCCUGAUGUGG", "RBNS enrichment (R)": 0.817}
{"Strand": "UGGAUUGCUGCUAGGAGAGUGACCCUUUAGUGGCAUAGUGACCUCAGACAAGAACUCCCUGGUUGAAAGAAGCCACCUCGAUGCAAAGGCUCAAGGUCCAGGGAGAGACA", "RBNS enrichment (R)": 0.602}
{"data": "Study 3", "target": "Sal-like protein 4, full length isoform A (SALL4, Homo sapiens, UniProt Q9UJQ4, residues 1-1053)", "method": "universal PBM", "molecule type": "double-stranded DNA, one strand shown", "matrix": "in vitro", "concentration": "600 nM", "setting": "8-mer, flanks averaged, mean of replicates", "direction": "higher = stronger binding", "chain of UniProt Q9UJQ4 (whole entry, looked up)": "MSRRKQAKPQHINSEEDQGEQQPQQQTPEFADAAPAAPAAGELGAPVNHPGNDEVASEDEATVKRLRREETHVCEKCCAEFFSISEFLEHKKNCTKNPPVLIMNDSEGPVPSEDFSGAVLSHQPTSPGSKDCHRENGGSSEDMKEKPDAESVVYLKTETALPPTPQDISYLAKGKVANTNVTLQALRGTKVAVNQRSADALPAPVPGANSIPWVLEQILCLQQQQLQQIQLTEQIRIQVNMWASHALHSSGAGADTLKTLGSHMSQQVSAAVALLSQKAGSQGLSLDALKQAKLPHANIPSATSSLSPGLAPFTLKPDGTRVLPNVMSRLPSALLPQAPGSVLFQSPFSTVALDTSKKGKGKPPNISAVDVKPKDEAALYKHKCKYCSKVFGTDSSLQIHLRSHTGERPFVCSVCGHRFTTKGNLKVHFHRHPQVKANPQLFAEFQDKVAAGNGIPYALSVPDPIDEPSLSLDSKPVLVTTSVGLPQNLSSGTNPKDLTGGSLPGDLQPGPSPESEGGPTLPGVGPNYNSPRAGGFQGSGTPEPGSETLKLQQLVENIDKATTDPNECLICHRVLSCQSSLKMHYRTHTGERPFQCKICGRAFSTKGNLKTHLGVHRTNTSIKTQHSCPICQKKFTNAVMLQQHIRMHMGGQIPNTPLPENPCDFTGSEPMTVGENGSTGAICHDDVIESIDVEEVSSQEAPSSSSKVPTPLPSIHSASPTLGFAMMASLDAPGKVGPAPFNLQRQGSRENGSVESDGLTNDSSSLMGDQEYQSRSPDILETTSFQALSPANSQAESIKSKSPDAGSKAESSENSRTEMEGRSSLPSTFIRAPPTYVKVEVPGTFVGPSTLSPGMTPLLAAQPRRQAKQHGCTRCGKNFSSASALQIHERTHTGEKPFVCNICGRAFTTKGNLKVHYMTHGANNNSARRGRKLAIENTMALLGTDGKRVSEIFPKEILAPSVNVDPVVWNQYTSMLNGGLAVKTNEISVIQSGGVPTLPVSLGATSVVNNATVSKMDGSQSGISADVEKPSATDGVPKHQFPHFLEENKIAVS"}
{"Strand": "AGTCGTGC", "E-score": -0.23}
{"Strand": "AAAACGGG", "E-score": -0.0735}
{"Strand": "TCAAGGCA", "E-score": 0.0151}
{"Strand": "AACAGGGG", "E-score": -0.187}
{"Strand": "AGAGGTCC", "E-score": -0.216}
{"Strand": "CTAAAGGA", "E-score": 0.0389}
{"Strand": "AGACGAAG", "E-score": -0.0118}
{"Strand": "ATGGCTTC", "E-score": 0.0898}
{"Strand": "AAAAAGCA", "E-score": 0.156}
{"Strand": "GCTAGTAA", "E-score": 0.148}
{"Strand": "ACGCAAAC", "E-score": -0.0732}
{"Strand": "GTCTAGAA", "E-score": 0.168}
{"Strand": "ATACGGTG", "E-score": 0.0704}
{"Strand": "CTGCAGGC", "E-score": -0.25}
{"Strand": "CGAACAAC", "E-score": 0.216}
{"Strand": "GAAACGTA", "E-score": 0.183}
{"Strand": "CGAGATAC", "E-score": 0.136}
{"Strand": "CGGTGTAG", "E-score": -0.133}
{"Strand": "GCAATCGC", "E-score": -0.152}
{"Strand": "CTTCACAA", "E-score": 0.0996}
{"Strand": "CTCTTGTC", "E-score": -0.0373}
{"Strand": "AGGTGAAA", "E-score": 0.129}
{"Strand": "ATGCTGAC", "E-score": 0.0867}
{"Strand": "TCCGTAAA", "E-score": 0.0777}
{"data": "Study 4", "target": "Runt-related transcription factor 1, full length (RUNX1, Homo sapiens, UniProt Q01196-8, residues 1-480)", "method": "protein-binding microarray", "molecule type": "hairpin DNA", "matrix": "in vitro", "concentration": "not given", "setting": "whole hairpin DNA, median over replicate spots", "baseline": "not given", "direction": "higher = stronger binding"}
{"Strand": "GAGGCCGGTTGTGGTTGGCCTCCTGGCCAACCACAACCGGCCTCACACTC (5mC at 38)", "median fluorescence [a.u.]": 3620}
{"Strand": "CTCAGTCGTGTGGGCTGGACTCCTGTCCAGCCCACACGACTGAGACACTC", "median fluorescence [a.u.]": 1860}
{"Strand": "GAGGCCTCGTGCGGTTGGCCTCCTGGCCAACCGCACGAGGCCTCACACTC (5mC at 8 36)", "median fluorescence [a.u.]": 2990}
{"Strand": "GAGGCCCAACCGCACCAGCCTCCTGGCTGGTGCGGTTGGGCCTCACACTC (5mC at 15)", "median fluorescence [a.u.]": 3300}
{"Strand": "GAGGCCTGTTCGGGTTGGCCTCCTGGCCAACCCGAACAGGCCTCACACTC (5mC at 11)", "median fluorescence [a.u.]": 1800}
{"Strand": "CTCAGTTATGTGGGCTGGACTCCTGTCCAGCCCACATAACTGAGACACTC", "median fluorescence [a.u.]": 1880}
{"Strand": "GAGGCCTGTTGTGCGTGGCCTCCTGGCCACGCACAACAGGCCTCACACTC", "median fluorescence [a.u.]": 1800}
{"Strand": "GAGGCCTGTCGCGGCTGGCCTCCTGGCCAGCCGCGACAGGCCTCACACTC", "median fluorescence [a.u.]": 1980}
{"Strand": "GAGGCCTGTTGCGGTTAGCCTCCTGGCTAACCGCAACAGGCCTCACACTC", "median fluorescence [a.u.]": 12100}
{"Strand": "GAGGCCCAACCGCAAGAGCCTCCTGGCTCTTGCGGTTGGGCCTCACACTC", "median fluorescence [a.u.]": 7420}
{"Strand": "GAGGCCCAACCGCAACAGCCTCCTGGCTGTTGCGGTTGGGCCTCACACTC (5mC at 33)", "median fluorescence [a.u.]": 2980}
{"note": "A few entries again (study 3):"}
{"Strand": "AGTCGTGC", "E-score": -0.23}
{"Strand": "AAAACGGG", "E-score": -0.0735}
{"Strand": "TCAAGGCA", "E-score": 0.0151}
{"Strand": "AACAGGGG", "E-score": -0.187}
{"Strand": "AGAGGTCC", "E-score": -0.216}
